Measured values of several laboratories.
Compare with care: the assays were run in different laboratories. ± gives the spread as reported.
Nuclear receptor subfamily 2 group C member 2 ligand-binding domain: Nuclear receptor subfamily 2 group C member 2, ligand-binding domain (Homo sapiens, UniProt P49116)
Chain of UniProt P49116 (whole entry, looked up): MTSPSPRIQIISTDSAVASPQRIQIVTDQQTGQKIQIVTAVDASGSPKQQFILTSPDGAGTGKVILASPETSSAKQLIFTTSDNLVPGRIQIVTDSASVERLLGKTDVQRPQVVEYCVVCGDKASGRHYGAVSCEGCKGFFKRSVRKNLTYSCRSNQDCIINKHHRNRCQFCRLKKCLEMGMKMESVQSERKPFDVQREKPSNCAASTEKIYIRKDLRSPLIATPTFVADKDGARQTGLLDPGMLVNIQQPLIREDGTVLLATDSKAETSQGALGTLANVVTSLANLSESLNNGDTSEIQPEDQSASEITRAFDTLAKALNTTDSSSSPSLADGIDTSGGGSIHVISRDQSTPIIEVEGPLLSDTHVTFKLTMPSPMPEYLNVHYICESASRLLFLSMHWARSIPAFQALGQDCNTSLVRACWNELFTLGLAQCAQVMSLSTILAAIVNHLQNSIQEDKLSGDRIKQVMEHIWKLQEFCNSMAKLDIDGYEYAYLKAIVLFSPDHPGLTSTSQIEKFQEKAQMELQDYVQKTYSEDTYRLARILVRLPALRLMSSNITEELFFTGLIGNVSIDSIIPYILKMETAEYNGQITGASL
Chain of UniProt O94921 (whole entry, looked up): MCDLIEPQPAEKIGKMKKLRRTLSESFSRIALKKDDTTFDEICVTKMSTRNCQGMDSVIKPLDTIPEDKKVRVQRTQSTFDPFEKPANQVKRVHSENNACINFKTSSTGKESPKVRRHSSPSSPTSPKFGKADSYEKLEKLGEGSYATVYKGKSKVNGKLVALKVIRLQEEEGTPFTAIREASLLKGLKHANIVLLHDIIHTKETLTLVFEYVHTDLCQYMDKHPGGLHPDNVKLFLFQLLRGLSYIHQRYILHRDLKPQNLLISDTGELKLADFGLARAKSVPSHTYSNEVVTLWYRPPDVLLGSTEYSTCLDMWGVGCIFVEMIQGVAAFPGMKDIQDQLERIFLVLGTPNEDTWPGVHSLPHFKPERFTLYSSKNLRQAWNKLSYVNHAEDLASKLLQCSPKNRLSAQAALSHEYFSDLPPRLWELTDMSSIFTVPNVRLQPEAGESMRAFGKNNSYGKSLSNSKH
Chain of UniProt O14920 (whole entry, looked up): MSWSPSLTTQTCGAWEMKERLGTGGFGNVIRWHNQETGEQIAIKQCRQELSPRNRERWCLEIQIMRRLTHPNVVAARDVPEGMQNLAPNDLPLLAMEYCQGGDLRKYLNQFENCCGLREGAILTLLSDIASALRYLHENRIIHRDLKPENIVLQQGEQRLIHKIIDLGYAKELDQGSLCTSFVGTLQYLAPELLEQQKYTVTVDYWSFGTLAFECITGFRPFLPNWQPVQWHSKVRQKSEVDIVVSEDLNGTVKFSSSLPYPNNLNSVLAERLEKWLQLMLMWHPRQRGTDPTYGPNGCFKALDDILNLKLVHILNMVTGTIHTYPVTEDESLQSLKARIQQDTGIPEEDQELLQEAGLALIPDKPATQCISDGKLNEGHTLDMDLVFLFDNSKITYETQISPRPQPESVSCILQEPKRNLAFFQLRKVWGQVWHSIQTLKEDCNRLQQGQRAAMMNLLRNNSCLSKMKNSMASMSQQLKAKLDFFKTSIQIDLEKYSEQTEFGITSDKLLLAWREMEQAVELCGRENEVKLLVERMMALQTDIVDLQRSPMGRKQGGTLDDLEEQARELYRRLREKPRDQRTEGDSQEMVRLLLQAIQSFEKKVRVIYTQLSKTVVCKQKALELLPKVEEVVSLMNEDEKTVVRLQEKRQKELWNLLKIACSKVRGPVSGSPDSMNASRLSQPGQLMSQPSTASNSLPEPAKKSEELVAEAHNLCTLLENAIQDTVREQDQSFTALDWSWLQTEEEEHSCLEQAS
Chain of UniProt Q02750 (whole entry, looked up): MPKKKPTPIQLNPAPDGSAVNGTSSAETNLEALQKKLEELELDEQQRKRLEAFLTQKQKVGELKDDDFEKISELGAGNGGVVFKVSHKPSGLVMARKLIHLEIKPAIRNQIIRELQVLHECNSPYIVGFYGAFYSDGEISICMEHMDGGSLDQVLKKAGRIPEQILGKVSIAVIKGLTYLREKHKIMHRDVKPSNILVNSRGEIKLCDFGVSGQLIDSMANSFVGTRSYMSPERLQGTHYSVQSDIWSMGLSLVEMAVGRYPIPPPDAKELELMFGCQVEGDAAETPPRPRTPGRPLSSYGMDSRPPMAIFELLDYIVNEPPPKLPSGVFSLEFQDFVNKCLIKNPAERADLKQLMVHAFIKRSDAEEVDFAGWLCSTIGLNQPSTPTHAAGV
Chain of UniProt Q9BYT3 (whole entry, looked up): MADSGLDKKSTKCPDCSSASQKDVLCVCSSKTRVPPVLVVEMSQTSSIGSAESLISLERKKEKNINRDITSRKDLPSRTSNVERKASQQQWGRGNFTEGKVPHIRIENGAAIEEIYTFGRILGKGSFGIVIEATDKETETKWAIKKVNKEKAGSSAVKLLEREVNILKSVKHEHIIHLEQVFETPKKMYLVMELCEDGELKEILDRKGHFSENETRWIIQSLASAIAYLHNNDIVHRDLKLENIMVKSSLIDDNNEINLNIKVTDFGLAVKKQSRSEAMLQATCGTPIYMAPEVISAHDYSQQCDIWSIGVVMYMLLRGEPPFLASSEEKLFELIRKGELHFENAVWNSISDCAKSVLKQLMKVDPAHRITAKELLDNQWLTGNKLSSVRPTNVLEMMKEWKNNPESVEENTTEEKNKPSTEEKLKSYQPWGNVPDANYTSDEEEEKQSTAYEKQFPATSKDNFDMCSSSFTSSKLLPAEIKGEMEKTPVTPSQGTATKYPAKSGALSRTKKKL
Chain of UniProt P22310 (whole entry, looked up): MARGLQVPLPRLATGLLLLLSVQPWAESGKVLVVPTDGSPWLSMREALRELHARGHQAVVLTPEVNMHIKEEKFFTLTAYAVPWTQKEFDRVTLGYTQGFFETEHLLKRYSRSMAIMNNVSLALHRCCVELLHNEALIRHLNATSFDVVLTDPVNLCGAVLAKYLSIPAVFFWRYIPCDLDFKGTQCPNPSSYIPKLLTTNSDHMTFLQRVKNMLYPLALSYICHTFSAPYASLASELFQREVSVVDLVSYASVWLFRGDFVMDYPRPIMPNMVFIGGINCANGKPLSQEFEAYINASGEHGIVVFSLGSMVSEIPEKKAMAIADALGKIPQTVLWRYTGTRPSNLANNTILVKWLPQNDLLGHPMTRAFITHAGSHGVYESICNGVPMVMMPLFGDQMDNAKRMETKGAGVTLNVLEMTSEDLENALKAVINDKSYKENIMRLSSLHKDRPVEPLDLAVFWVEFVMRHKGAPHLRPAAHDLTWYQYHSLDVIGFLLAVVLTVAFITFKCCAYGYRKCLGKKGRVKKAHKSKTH
Chain of UniProt O00238 (whole entry, looked up): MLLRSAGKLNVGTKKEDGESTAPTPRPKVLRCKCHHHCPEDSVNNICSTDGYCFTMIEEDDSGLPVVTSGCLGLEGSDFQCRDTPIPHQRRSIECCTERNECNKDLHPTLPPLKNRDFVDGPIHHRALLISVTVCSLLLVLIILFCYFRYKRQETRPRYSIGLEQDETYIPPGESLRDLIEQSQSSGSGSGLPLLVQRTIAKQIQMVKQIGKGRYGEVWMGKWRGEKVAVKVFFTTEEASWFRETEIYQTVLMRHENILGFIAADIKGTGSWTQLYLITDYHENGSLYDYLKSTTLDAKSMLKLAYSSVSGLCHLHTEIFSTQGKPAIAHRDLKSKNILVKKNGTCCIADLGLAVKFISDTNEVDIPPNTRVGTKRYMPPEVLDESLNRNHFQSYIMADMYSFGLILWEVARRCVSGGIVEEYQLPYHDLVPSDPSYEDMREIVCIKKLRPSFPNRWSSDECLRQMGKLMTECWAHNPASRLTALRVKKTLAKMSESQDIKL
Chain of UniProt P05164 (whole entry, looked up): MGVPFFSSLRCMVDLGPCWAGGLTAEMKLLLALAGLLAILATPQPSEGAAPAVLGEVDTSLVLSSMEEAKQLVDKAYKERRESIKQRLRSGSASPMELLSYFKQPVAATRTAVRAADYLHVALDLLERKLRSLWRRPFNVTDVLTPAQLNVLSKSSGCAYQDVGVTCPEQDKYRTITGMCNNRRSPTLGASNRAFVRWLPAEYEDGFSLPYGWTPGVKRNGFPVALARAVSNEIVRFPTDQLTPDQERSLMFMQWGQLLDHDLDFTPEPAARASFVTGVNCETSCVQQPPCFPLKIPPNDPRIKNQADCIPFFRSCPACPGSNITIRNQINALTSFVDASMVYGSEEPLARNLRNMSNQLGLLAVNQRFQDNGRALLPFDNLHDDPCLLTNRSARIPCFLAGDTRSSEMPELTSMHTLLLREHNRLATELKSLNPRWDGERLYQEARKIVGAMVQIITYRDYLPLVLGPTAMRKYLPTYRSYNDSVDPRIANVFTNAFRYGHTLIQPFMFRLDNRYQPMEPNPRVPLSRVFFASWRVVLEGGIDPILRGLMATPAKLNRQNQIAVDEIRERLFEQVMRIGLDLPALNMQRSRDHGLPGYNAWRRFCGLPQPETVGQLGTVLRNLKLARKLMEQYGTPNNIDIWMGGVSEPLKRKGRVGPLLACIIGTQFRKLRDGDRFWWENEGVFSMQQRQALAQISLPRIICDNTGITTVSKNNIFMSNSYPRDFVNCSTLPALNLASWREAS
Chain of UniProt Q96KB5 (whole entry, looked up): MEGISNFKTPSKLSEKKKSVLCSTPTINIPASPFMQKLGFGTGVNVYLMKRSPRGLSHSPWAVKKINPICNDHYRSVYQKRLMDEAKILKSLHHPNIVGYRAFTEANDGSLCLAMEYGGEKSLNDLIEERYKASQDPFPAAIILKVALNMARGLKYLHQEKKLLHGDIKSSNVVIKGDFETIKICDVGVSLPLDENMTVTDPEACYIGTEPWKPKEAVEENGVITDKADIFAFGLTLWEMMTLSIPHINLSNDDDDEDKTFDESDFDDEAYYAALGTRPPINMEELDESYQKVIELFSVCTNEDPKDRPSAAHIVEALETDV

O=C(O)CCNc1cc(N2CCc3ccccc3CC2)nc(-c2cccnc2)n1 gave a viability of 125% (OCI-Ly1; 0.1 µM, 120 h).
CN1C(C(=O)Nc2ccccn2)=C(O)c2sc(Cl)cc2S1(=O)=O gave a Kd of 0.00934 nM (Nuclear receptor subfamily 2 group C member 2 ligand-binding domain; SPR imaging).
CC1=NN(c2ccc(C(=O)O)cc2)C(=O)/C1=C\c1ccc(-c2cc(C)c(C)cc2[N+](=O)[O-])o1 has a viability of 105% (OCI-Ly1; 0.1 µM, 120 h).
For Cc1cc(Nc2cc(N3CCN(C)CC3)nc(Sc3ccc(NC(=O)C4CC4)cc3)n2)[nH]n1, the remaining activity was 96% (STK33 (Homo sapiens, UniProt Q9BYT3); kinase activity, KinaseProfiler; 0.03 µM, species human; relative to: control).
COc1cc(F)ccc1-c1ncnc(Nc2cccc(C[S@](C)(=N)=O)c2)n1 has a remaining activity of 83% (MARK2 (Homo sapiens, UniProt Q7KZI7); kinase activity; 10 µM, with: 10 µM ATP).
COc1ccc(F)cc1C(=O)NCc1ccc(-c2nn([C@@H](C)C(F)(F)F)c(N)c2C(N)=O)cc1 has a remaining activity of 12.2 ± 1.4% (MAP2K1 (Homo sapiens, UniProt Q02750); kinase activity, inhibitor, HotSpot radiometric; 1000 nM, with: ATP at Km).
The remaining activity of O=C1NC(=O)/C(=C/c2ccc(-c3ccc(F)cc3O)o2)S1 is reported as 73% (IKBKB (Homo sapiens, UniProt O14920); enzyme activity; 10 µM).
For CNc1ncc2c(/C=C/C(=O)N3CCC(OC)CC3)nn(Cc3cccc(C(F)(F)F)c3)c2n1, the remaining activity was 86% (PBK (Homo sapiens, UniProt Q96KB5); kinase activity, inhibitor; 1 µM; relative to: untreated control).
For COc1cc(-c2cncc3c2CN(C)Cc2cc(N4CCNCC4)ccc2-3)cc(OC)c1OC, the remaining activity was 11% (BMPR1B (Homo sapiens, UniProt O00238); kinase activity; 1 µM, human enzyme, with: ATP 10 µM; relative to: DMSO control).
With Cc1cc(NC(=O)c2cccc(NC(=O)/C=C/CN(C)C)c2)ccc1Nc1nccc(-c2cccnc2)n1 the remaining activity was 0.856 (MAPK8 (Homo sapiens, UniProt P45983); enzyme activity, inhibitor; 0.006774 µM, 0 h, unit not given, with: GSH 10 mM pre-incubation; relative to: vehicle).
With Clc1ccc(CCC(Cn2ccnc2)Sc2c(Cl)cccc2Cl)cc1 (stereo not drawn) the Kd was 0.0185 nM (Nuclear receptor subfamily 2 group C member 2 ligand-binding domain; SPR imaging).
With NC/C(=C\F)COc1cccc(Cn2c(=S)[nH]c(=O)c3[nH]cnc32)c1 the remaining activity was 94.4% (Myeloperoxidase (MPO, Homo sapiens, UniProt P05164); LDL lipid peroxidation, inhibitor, cholesteryl ester hydroperoxide; 0.00023 µM).
O=C(O)c1ccc(Nc2ncc3c(n2)-c2ccc(Cl)cc2C(c2c(F)cccc2F)=NC3)cc1 gave a remaining activity of 125% (human JNK3(h); kinase activity; 1 µM).
For O=C(NC1CCC1)c1ccc2nc(-c3cccc(NS(=O)(=O)NCCN4CCCCC4)c3)cn2c1, the remaining activity was 95% (CDK14 (Homo sapiens, UniProt O94921); enzyme activity; 10 µM).
For C[C@@H]1CC[C@@]2(OC1)O[C@H]1C[C@H]3[C@@H]4CC[C@H]5C[C@@H](O)CC[C@]5(C)[C@H]4CC(=O)[C@]3(C)[C@H]1[C@@H]2C, the remaining activity was ~55% (UGT1A4 (Homo sapiens, UniProt P22310); glucuronidation, inhibitor; human liver microsomes; 1 µM, with: probe substrate 0.5 µM; relative to: no inhibitor).
COc1cc(Nc2ncc3c(n2)-c2ccc(Cl)cc2C(c2c(F)cccc2OC)=NC3)ccc1C(=O)O has a remaining activity of 115% (PRKCA; kinase activity; 1 µM).
C=CC(=O)N1CCC[C@@H](n2nc(-c3ccc(Oc4ccccc4)cc3)c3c(N)ncnc32)C1 has a remaining activity of 154% (ERBB3 (Homo sapiens, UniProt P21860); 10 µM).
CNCC(=O)O gave a remaining activity of 88.6% (SLC6A9 (Homo sapiens, UniProt P48067, G373S); glycine uptake, inhibitor; 3000 µM, with: [3H]glycine; relative to: no inhibitor).

Repeated from above:
COc1cc(F)ccc1-c1ncnc(Nc2cccc(C[S@](C)(=N)=O)c2)n1 has a remaining activity of 83% (MARK2 (Homo sapiens, UniProt Q7KZI7); kinase activity; 10 µM, with: 10 µM ATP).
CNCC(=O)O gave a remaining activity of 88.6% (SLC6A9 (Homo sapiens, UniProt P48067, G373S); glycine uptake, inhibitor; 3000 µM, with: [3H]glycine; relative to: no inhibitor).
With Clc1ccc(CCC(Cn2ccnc2)Sc2c(Cl)cccc2Cl)cc1 (stereo not drawn) the Kd was 0.0185 nM (Nuclear receptor subfamily 2 group C member 2 ligand-binding domain; SPR imaging).
